Measurements collected from several papers.
Numbered parts are unrelated; each lists some results of a single study. “And” joins repeats or separate records; there may be more than shown.
Chain of UniProt Q15759 (whole entry, looked up): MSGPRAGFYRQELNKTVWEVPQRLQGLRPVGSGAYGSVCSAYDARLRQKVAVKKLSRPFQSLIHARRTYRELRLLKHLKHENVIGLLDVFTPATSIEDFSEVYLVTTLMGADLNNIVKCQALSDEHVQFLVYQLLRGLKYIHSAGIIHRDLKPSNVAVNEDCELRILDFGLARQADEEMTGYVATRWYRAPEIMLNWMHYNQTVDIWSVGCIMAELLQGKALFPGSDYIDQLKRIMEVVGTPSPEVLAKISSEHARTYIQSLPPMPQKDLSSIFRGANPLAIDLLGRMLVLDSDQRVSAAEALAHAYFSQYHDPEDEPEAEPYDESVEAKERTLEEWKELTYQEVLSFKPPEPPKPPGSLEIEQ
Chain of UniProt P06493 (whole entry, looked up): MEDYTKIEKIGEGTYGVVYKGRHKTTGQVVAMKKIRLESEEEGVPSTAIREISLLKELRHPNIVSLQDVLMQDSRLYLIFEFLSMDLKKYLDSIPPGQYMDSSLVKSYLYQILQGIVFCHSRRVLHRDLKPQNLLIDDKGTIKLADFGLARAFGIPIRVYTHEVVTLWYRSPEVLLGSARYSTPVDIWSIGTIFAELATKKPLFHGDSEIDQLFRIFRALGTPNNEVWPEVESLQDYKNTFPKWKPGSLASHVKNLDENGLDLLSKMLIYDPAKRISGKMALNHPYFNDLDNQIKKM
Chain of UniProt P08581 (whole entry, looked up): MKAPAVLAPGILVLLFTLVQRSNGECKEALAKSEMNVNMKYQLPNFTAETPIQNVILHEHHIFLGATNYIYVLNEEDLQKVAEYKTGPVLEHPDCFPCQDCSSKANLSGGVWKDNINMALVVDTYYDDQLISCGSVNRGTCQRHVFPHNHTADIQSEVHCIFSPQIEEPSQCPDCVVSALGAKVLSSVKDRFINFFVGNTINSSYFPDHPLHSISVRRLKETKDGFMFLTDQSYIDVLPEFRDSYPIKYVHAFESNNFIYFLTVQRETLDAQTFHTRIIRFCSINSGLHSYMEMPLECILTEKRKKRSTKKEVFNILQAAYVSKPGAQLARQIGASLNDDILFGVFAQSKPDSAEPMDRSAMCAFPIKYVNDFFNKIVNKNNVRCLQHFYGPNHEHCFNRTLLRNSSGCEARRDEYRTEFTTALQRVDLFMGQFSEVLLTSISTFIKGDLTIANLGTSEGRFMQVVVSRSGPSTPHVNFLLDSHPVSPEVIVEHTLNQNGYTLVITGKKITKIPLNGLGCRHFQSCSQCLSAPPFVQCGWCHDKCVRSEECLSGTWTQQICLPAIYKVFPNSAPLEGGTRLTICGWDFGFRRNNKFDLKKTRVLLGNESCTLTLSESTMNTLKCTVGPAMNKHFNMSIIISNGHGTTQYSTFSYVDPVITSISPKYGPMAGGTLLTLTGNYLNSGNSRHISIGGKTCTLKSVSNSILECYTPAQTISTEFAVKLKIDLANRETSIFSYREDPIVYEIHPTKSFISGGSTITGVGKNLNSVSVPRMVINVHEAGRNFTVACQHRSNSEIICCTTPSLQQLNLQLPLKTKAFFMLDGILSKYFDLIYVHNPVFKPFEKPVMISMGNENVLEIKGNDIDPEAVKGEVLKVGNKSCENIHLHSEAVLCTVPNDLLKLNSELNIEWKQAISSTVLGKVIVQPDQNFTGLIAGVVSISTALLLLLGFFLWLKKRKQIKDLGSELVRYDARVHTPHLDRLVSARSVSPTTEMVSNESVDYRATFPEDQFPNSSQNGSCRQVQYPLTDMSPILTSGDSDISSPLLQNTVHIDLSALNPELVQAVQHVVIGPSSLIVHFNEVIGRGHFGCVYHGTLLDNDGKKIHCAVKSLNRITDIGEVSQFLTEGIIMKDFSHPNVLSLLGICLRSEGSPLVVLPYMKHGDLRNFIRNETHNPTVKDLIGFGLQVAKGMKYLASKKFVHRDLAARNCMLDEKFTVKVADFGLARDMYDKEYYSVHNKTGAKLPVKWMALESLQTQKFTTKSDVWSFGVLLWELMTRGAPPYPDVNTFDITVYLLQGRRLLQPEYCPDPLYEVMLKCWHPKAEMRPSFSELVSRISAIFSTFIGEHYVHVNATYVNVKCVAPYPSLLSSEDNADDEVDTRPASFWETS
Chain of UniProt P50750 (whole entry, looked up): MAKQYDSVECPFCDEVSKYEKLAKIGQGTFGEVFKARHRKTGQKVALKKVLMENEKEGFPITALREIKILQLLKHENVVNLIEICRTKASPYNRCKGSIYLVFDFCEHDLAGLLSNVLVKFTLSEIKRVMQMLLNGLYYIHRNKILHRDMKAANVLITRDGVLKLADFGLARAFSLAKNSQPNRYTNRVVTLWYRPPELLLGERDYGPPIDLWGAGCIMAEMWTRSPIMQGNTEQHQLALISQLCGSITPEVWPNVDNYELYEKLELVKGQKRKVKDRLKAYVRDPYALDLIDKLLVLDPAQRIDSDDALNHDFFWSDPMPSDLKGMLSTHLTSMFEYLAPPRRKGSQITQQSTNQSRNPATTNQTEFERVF
Chain of UniProt Q9H4B4 (whole entry, looked up): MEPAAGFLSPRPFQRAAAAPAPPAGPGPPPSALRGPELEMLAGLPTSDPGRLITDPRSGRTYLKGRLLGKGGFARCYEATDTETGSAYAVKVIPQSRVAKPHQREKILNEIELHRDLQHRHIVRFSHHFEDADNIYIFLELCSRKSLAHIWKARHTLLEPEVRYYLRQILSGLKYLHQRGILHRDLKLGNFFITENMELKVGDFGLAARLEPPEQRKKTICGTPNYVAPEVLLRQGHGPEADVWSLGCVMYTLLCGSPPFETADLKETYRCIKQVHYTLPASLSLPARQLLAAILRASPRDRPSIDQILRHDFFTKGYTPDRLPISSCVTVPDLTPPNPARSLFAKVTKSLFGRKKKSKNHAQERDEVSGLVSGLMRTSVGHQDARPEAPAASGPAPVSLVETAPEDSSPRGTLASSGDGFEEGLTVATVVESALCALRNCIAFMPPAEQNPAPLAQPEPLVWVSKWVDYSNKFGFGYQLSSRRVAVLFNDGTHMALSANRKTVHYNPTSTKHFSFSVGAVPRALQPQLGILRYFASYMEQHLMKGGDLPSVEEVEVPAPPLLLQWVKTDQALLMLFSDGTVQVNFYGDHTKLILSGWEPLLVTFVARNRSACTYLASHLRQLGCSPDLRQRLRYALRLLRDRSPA
Chain of UniProt Q6P2M8 (whole entry, looked up): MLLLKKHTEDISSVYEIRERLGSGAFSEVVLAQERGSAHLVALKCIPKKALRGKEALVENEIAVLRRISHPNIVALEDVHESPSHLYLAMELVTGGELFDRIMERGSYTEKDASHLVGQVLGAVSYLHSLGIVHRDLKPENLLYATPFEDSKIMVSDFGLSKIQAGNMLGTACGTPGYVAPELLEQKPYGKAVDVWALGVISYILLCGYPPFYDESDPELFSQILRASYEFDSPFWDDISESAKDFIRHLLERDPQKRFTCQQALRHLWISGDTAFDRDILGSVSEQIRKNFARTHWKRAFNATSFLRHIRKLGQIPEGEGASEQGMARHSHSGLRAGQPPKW
Chain of UniProt Q16832 (whole entry, looked up): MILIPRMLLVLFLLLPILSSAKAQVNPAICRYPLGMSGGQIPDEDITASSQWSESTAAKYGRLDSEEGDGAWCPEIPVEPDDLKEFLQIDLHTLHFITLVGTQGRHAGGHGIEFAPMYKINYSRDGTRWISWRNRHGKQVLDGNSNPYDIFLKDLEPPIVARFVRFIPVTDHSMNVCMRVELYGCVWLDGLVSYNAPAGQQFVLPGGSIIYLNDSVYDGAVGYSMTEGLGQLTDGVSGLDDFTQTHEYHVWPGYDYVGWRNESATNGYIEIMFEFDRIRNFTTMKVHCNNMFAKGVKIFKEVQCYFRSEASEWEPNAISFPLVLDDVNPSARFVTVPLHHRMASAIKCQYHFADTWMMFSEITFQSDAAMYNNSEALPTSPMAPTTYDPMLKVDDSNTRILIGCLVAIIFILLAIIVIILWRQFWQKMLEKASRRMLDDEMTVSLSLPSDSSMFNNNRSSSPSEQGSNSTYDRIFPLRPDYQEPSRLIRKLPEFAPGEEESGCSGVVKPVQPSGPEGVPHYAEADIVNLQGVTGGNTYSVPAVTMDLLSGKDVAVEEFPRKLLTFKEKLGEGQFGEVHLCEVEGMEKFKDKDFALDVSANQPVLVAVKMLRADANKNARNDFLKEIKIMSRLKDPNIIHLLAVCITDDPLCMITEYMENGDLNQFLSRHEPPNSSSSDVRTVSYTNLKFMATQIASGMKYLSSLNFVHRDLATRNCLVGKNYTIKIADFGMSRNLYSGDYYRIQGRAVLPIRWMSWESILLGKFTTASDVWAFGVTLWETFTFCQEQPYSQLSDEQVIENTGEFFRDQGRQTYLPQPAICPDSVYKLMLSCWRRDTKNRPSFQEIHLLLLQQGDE

Block 1
Structure (SMILES): Cc1cc(Nc2cc(N3CCN(C)CC3)nc(Sc3ccc(NC(=O)C4CC4)cc3)n2)[nH]n1
Read-out: enzyme activity
Action: inhibitor
Concentration: 0.5 µM
Relative to: control
target | remaining activity
NEK3 (Homo sapiens, UniProt P51956) | 95%
Myosin-IIIb (MYO3B, Homo sapiens, UniProt Q8WXR4) | 92.8%
CDC42BPB (Homo sapiens, UniProt Q9Y5S2) | 101%
CLK4 (Homo sapiens, UniProt Q9HAZ1) | 90%
DDR2 (Homo sapiens, UniProt Q16832) | 61.9%
AKT2 (Homo sapiens, UniProt P31751) | 103%
PNCK (Homo sapiens, UniProt Q6P2M8) | 99%
RPS6KA4 (Homo sapiens, UniProt O75676) | 100%
ROCK1 (Homo sapiens, UniProt Q13464) | 110%
PLK3 (Homo sapiens, UniProt Q9H4B4) | 98.8%
TXK (Homo sapiens, UniProt P42681) | 78.8%
MAP2K1 (Homo sapiens, UniProt Q02750) | 89.7%
TLK2 (Homo sapiens, UniProt Q86UE8) | 86.6%
MARK4 (Homo sapiens, UniProt Q96L34) | 87.4%
CAMK4 (Homo sapiens, UniProt Q16566) | 93.9%
PRKG2 (Homo sapiens, UniProt Q13237) | 105%
MAPK14 (Homo sapiens, UniProt Q16539) | 97.2%
DCLK2 (Homo sapiens, UniProt Q8N568) | 99.2%
CLK3 (Homo sapiens, UniProt P49761) | 110%
Cyclin-dependent kinase 1, with cyclin A (CDK1, Homo sapiens, UniProt P06493) | 99.1%
MAPK11 (Homo sapiens, UniProt Q15759) | 93.5%
Cyclin-dependent kinase 9, with cyclin K (CDK9, Homo sapiens, UniProt P50750) | 102%
KDR (Homo sapiens, UniProt P35968) | 85.3%
MAPK1 (Homo sapiens, UniProt P28482) | 91.2%
MET (Homo sapiens, UniProt P08581) | 70.9%

Block 2
Target: Eukaryotic initiation factor 4A-I (EIF4A1, Homo sapiens, UniProt P60842)
Chain of UniProt P60842 (whole entry, looked up): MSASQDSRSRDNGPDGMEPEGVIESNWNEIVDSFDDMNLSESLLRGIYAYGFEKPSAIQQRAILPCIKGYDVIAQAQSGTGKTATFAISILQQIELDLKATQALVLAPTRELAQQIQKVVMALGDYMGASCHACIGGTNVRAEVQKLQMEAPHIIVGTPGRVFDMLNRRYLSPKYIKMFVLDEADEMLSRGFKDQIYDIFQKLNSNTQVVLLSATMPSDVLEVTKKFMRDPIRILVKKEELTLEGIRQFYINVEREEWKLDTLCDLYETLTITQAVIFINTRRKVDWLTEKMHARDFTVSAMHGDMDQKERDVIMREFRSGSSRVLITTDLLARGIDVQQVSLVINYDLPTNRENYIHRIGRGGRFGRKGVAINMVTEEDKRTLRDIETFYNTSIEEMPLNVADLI
Read-out: RNA clamping
Method: fluorescence polarization
Concentration: concentration not given
Notes: mean of two replicates
With: FAM-labelled poly r(AG)8 RNA
Compound | fluorescence polarization change [mP]
COc1ccc([C@@]23Oc4cc(OC)cc(OC)c4[C@]2(O)c2nc(C)[nH]c(=O)c2[C@H]3c2ccccc2)cc1 | 66.5
CCCN[C@@]12C(=O)[C@H](C(=O)N(C)C)[C@@H](c3ccccc3)[C@]1(c1ccc(OC)cc1)Oc1cc(OC)cc(OC)c12 | -4.4
COc1cc(OC)c2c(c1)O[C@@]1(c3ccc(C#N)cc3)[C@H](c3ccccc3)[C@@H](CN(C)C)[C@@H](O)[C@@]21O | 82.7
COC(=O)[C@H]1C(=O)[C@@]2(NC34C[C@H]5C[C@@H](C3)C[C@@H](C4)C5)c3c(OC)cc(OC)cc3O[C@@]2(c2ccc(OC)cc2)[C@@H]1c1ccccc1 | 0.4
C#CCCCOC(=O)/C=C/Cn1c(-c2ccccc2)nc2c(c1=O)[C@@H](c1ccccc1)[C@]1(c3ccc(OC)cc3)Oc3cc(OC)cc(OC)c3[C@]21O | 12.6
CNCCOc1ccc2c(c1)O[C@@]1(c3ccc(Cl)cc3)[C@H](c3ccccc3)C[C@H](O)[C@@]21O | 119
COC(=O)[C@H]1C(=O)[C@@]2(NCCCC(OC)OC)c3c(OC)cc(OC)cc3O[C@@]2(c2ccc(OC)cc2)[C@@H]1c1ccccc1 | 13.2
COCCN[C@@]12C(=O)[C@H](C(=O)N(C)C)[C@@H](c3ccccc3)[C@]1(c1ccc(OC)cc1)Oc1cc(OC)cc(OC)c12 | -5.3

Block 3
Organism: Sarcocystis neurona
Read-out: parasite activity
Concentration: 10 µM
Time: 96 h
SMILES | activity class
CC(C)(C)NC(=O)[C@@H]1CN(Cc2cccnc2)CCN1C[C@@H](O)C[C@@H](Cc1ccccc1)C(=O)N[C@H]1c2ccccc2C[C@H]1O | inactive
CC(C)Oc1ccc2c(=O)c(-c3ccccc3)coc2c1 | inactive
c1ccc(CC2=NCCN2)cc1 | inactive
CN(C)CCc1c[nH]c2ccc(Cn3cncn3)cc12 | inactive
CCCC(CCC)C(=O)O | inactive
CN1CCC(=C2c3ccccc3CC(=O)c3sccc32)CC1 | inactive
CC(C(=O)O)c1cccc(C(=O)c2ccccc2)c1 (stereo not shown) | inactive
CO/N=C(\C(=O)N[C@@H]1C(=O)N2C(C(=O)O)=C(COC(N)=O)CS[C@H]12)c1ccco1 | inactive
COc1cc(C(=O)NC2CCCNC2)cc(OC)c1OC (stereo not shown) | inactive
CC(N)C12CC3CC(CC(C3)C1)C2 (stereo not shown) | inactive

Block 4
SMILES: COc1cc(C(=O)N2CCC(N3CCN(C)CC3)CC2)ccc1Nc1ncc2c(n1)N(C)c1ccccc1C(=O)N2C
tested on | test | test system | conditions | inhibition
Serine/threonine-protein kinase MARK2 (Mark2, Mus musculus, UniProt Q05512) | KiNativ profiling | mouse brain lysate | 0.1 µM, LYS1 site, with: ADP acyl phosphate probe | 15.6%
human PBMC | probe labeling, inhibitor, KiNativ profiling, refers to: DTGHVYAMkILR | cell lysate | 1 µM, LYS1 site, with: ATP acyl-phosphate probe | 4.9%
NDR2 (mouse) | probe labelling, KiNativ, refers to: DTGHIYAMkILR peptide, LYS1 site | brain tissue lysate (mouse) | 1 µM, with: ATP acyl-phosphate probe | -8.4%
NDR2 (mouse) | probe labelling, KiNativ ATP probe | mouse brain lysate | 0.1 µM, LYS1 labelled site | 6.3%
MAP2K4 (mouse) | probe labelling, KiNativ, refers to: DIkPSNILLDR peptide, LYS2 site | brain tissue lysate (mouse) | 1 µM, with: ADP acyl-phosphate probe | -22.2%
mouse MER and TYRO3 | probe labelling, KiNativ ADP probe | mouse brain lysate | 0.1 µM | -16.1%
mouse CK1δ and CK1ε | probe labelling, KiNativ ATP probe | mouse brain lysate | 1 µM, LYS2 site | 33.6%
CDK9 (mouse) | probe labelling, KiNativ, refers to: DMkAANVLITR peptide, LYS2 site | brain tissue lysate (mouse) | 0.1 µM, with: ATP acyl-phosphate probe | -20.7%
STLK5 (mouse) | probe labelling, KiNativ, refers to: LYS2 site peptide | brain tissue lysate (mouse) | 1 µM, with: ATP acyl-phosphate probe | -17.9%
MAP3K2 (human) | probe labelling, KiNativ ADP probe | human PBMC lysate | concentration not given, LYS1 labelled site | -3.3% and -4.7%
CASK (mouse) | probe labelling, KiNativ ATP probe | mouse brain lysate | 1 µM, LYS1 labelled site | 18.5%
SLK human | KiNativ profiling | human PBMC | 0.1 µM, LYS2 site, with: ATP acyl phosphate probe | 32.5%

Some of these lines once more (block 1):
target | remaining activity
Myosin-IIIb (MYO3B, Homo sapiens, UniProt Q8WXR4) | 92.8%
CLK3 (Homo sapiens, UniProt P49761) | 110%
KDR (Homo sapiens, UniProt P35968) | 85.3%
PRKG2 (Homo sapiens, UniProt Q13237) | 105%
